Results of several laboratories.
A part holds a random share of what one study measured. Several values in a cell are separate wells, animals, samples, runs or records.
UniProt Q14164, sequence (whole entry, looked up): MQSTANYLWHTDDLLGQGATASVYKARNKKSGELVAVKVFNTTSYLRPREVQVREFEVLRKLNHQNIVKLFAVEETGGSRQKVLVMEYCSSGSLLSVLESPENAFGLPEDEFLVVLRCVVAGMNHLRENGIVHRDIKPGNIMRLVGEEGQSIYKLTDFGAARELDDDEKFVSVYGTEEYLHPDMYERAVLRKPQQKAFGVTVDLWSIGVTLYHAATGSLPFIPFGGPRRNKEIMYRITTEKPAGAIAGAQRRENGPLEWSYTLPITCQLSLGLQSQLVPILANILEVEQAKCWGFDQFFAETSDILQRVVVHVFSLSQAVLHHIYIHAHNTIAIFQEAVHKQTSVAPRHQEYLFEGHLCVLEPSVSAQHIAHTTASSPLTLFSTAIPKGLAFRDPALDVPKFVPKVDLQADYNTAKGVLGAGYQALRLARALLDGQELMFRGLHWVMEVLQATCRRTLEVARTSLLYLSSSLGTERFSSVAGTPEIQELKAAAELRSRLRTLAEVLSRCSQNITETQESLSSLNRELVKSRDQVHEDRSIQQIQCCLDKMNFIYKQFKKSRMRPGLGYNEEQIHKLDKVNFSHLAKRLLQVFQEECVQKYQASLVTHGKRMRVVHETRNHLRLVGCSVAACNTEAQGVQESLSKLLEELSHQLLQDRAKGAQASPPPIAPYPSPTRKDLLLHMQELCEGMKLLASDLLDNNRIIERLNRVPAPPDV
UniProt P28335, sequence (whole entry, looked up): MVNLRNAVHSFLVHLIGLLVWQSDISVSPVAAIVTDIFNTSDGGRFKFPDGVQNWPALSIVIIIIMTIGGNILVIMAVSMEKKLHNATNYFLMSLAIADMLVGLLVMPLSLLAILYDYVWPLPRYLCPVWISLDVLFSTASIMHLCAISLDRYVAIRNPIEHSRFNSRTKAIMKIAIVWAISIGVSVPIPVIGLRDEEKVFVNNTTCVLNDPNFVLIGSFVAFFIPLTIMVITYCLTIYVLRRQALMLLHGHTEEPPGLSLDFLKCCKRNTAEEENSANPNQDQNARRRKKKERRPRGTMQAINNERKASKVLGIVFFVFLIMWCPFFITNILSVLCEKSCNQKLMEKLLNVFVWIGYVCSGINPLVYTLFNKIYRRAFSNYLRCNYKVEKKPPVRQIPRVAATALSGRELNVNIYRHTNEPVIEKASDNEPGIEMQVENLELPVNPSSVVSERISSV

Set 1
Cell line: A-375
Concentration: 100 µM
Time: 18 h
| Structure (SMILES) | viability [%] |
| --- | --- |
| O=C(O)[C@@H]1[C@H](C(=O)O)[C@H]2CC[C@@H]1O2 | 86.1 |
| O=C(CCCN1CCC2(CC1)C(=O)NCN2c1ccccc1)c1ccc(F)cc1 | 29.4 |
| C[C@]12CC[C@H]3[C@@H](CCC4=CC(=O)CC[C@@]43C)[C@@H]1CC[C@@H]2O | 94.8 |
| CCC[C@H](NC(=O)[C@@H]1[C@H]2CCC[C@H]2CN1C(=O)[C@@H](NC(=O)[C@@H](NC(=O)c1cnccn1)C1CCCCC1)C(C)(C)C)C(=O)C(=O)NC1CC1 | 55.1 |
| CNCC(O)c1ccc(O)cc1 (stereo not drawn) | 92.6 |
| O=P1(N(CCCl)CCCl)NCCCO1 (stereo not drawn) | 84.4 |

Set 2
Cell line: HEK-293T
Effect on: pseudovirus infection
Technique: FDA-approved drug library counter-screen
Organism: VSV pseudotyped with VSV-G
Concentration: 10 µM
Time: 16 h
Reference: vehicle-treated
| SMILES | GFP-positive cells |
| --- | --- |
| NCCCNCCSP(=O)(O)O | 116% |
| Nc1nc(F)nc2c1ncn2[C@@H]1O[C@H](CO)[C@@H](O)[C@@H]1O | 112% |
| Nc1nc(Cl)nc2c1ncn2[C@H]1C[C@H](O)[C@@H](CO)O1 | 98.8% |
| COc1ccc(CN(C(=O)[C@@H](N)Cc2c(C)cc(C(N)=O)cc2C)[C@@H](C)c2ncc(-c3ccccc3)[nH]2)cc1C(=O)O | 113% |
| CC(=O)OC(C)C[N+](C)(C)C (stereo not drawn) | 123% |
| O=S(=O)(O)CCS | 111% |
| CC[C@H]1OC(=O)[C@H](C)[C@@H](O[C@H]2C[C@@](C)(OC)[C@@H](O)[C@H](C)O2)[C@H](C)[C@@H](O[C@@H]2O[C@H](C)C[C@H](N(C)C)[C@H]2O)[C@](C)(O)C[C@@H](C)CN(C)[C@H](C)[C@@H](O)[C@]1(C)O | 101% |
| CC(=O)c1c(C)c2cnc(Nc3ccc(N4CCNCC4)cn3)nc2n(C2CCCC2)c1=O | 125% |
| CCCc1nc(C(C)(C)O)c(C(=O)OCc2oc(=O)oc2C)n1Cc1ccc(-c2ccccc2-c2nnn[nH]2)cc1 | 93.7% |
| C[C@@H]1O[C@@H]1P(=O)(O)O | 97.7% |
| COCCc1ccc(OCC(O)CNC(C)C)cc1 (stereo not drawn) | 77.7% |
| NC12CC3CC(CC(C3)C1)C2 | 93.2% |
| C[C@]12COC(=O)C[C@@H]1CC[C@@H]1[C@@H]2CC[C@@]2(C)[C@H]1CC[C@]2(C)O | 90.9% |
| CC(=O)NS(=O)(=O)c1ccc(N)cc1 | 129% |
| OC[C@@H](O)[C@@H](O)[C@H](O)[C@H](O)CO | 114% |
| Cc1c(O)cccc1C(=O)N[C@@H](CSc1ccccc1)[C@H](O)CN1C[C@H]2CCCC[C@H]2C[C@H]1C(=O)NC(C)(C)C | 112% |
| C[Se]CC[C@H](N)C(=O)O | 119% |
| CC#CCn1c(N2CCC[C@@H](N)C2)nc2c1c(=O)n(Cc1nc(C)c3ccccc3n1)c(=O)n2C | 107% |
| C[N+]12CCC(CC1)C(OC(=O)C(O)(c1ccccc1)c1ccccc1)C2 (stereo not drawn) | 132% |
| Cc1ccc(=O)n(-c2ccccc2)c1 | 93.8% |
| C[C@]12CCC(=O)C=C1[C@@H]1C[C@@H]1[C@H]1[C@@H]3[C@@H]4C[C@@H]4[C@@]4(CCC(=O)O4)[C@@]3(C)CC[C@@H]12 | 93.8% |
| C/C(O)=C(\C#N)C(=O)Nc1ccc(C(F)(F)F)cc1 | 33.3% |
| COc1ccnc(C[S+]([O-])c2nc3ccc(OC(F)F)cc3[nH]2)c1OC (stereo not drawn) | 102% |

Set 3
Target: DNA polymerase theta, ATPase domain (POLQ, Homo sapiens, UniProt O75417)
UniProt O75417, sequence (whole entry, unmodified, looked up): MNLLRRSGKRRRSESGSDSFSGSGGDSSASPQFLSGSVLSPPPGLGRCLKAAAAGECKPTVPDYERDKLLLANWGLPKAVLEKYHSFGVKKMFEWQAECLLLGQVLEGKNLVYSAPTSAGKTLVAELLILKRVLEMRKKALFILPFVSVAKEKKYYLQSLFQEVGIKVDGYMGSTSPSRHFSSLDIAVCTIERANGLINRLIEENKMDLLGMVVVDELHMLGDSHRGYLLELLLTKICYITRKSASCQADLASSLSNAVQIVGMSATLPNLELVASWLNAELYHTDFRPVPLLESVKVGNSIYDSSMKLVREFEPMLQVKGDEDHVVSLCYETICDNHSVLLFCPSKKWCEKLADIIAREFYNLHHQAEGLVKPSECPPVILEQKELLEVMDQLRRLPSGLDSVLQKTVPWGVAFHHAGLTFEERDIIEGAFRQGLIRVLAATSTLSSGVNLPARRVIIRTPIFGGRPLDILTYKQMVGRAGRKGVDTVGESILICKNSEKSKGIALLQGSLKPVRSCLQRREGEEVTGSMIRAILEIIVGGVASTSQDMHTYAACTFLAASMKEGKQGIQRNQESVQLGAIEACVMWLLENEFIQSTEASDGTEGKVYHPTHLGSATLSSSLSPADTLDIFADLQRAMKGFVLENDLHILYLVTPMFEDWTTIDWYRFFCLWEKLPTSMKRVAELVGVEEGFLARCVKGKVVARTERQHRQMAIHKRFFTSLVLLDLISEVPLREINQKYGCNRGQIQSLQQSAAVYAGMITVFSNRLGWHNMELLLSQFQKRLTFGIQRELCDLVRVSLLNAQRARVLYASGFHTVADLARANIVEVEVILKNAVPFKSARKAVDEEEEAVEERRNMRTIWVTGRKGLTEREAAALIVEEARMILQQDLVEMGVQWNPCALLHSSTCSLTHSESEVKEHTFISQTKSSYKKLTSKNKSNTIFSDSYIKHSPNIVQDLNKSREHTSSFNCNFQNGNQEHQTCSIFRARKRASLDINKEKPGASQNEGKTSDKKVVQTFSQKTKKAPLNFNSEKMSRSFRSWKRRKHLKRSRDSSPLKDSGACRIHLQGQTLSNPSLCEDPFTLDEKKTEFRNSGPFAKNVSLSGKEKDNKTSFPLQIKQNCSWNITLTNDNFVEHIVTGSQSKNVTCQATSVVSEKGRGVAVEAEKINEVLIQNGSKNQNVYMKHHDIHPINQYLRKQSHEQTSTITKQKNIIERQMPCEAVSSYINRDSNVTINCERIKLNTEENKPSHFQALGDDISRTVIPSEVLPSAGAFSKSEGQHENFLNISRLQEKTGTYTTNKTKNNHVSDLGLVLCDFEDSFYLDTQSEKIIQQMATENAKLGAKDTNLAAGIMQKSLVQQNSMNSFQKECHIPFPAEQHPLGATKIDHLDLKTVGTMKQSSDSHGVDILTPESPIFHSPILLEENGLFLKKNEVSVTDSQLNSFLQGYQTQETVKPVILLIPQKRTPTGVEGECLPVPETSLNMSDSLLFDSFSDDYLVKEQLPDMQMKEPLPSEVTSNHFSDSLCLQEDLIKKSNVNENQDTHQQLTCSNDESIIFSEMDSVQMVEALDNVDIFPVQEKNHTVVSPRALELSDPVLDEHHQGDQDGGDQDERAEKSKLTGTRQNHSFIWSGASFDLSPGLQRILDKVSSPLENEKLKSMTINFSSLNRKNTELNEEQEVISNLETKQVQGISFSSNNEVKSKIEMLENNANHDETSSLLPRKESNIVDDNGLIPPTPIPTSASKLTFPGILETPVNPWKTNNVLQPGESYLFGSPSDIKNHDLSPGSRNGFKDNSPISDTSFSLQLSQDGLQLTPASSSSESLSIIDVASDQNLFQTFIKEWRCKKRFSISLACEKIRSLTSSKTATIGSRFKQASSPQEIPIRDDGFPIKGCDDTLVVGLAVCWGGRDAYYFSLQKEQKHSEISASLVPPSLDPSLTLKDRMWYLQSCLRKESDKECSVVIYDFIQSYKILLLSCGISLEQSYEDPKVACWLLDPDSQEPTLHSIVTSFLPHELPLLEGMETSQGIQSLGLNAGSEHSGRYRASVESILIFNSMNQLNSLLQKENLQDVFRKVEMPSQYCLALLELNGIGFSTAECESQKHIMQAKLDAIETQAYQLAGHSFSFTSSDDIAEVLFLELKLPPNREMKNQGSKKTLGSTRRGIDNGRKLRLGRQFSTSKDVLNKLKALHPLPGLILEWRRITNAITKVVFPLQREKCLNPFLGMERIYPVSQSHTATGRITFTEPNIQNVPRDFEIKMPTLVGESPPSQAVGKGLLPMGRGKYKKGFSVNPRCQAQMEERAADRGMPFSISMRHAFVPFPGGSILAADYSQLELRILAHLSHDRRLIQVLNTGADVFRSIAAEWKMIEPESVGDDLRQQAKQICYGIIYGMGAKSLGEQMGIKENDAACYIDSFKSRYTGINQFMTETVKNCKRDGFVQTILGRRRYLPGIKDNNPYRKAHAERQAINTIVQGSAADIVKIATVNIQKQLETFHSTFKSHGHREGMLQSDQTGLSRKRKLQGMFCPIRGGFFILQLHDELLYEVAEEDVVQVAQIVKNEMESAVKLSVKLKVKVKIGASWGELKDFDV
Effect on: enzyme activity
Mode: inhibitor
Concentration: 77 µM
Reference: untreated
| Compound | remaining activity |
| --- | --- |
| CC(C)(C)NCC(O)c1cc(Cl)c(N)c(Cl)c1 (stereo not drawn) | 101% |
| COc1ccc(OC)c([C@@H](O)[C@H](C)N)c1 | 100% |
| CC(CCc1ccccc1)NC(C)C(O)c1ccc(O)cc1 (stereo not drawn) | 99.7% |
| N#CC(C#N)=Cc1ccc(O)c(O)c1 | 99.6% |
| O=c1ccc2cc(O[C@@H]3O[C@H](CO)[C@@H](O)[C@H](O)[C@H]3O)c(O)cc2o1 | 102% and 110% |

Set 4
SMILES: N/C(=N\[N+](=O)[O-])N/N=C\c1ccc(-c2cccc([N+](=O)[O-])c2)o1
Effect on: enzyme activity
Mode: inhibitor
Concentration: 0.5 µM
Reference: control
| target | remaining activity |
| --- | --- |
| cGMP-dependent protein kinase 1, isoform beta (PRKG1, Homo sapiens, UniProt Q13976) | 95.8% |
| CAMKK2 (Homo sapiens, UniProt Q96RR4) | 114% |
| MAP3K3 (Homo sapiens, UniProt Q99759) | 93.8% |
| DAPK1 (Homo sapiens, UniProt P53355) | 97.8% |
| STK10 (Homo sapiens, UniProt O94804) | 99.6% |
| OXSR1 (Homo sapiens, UniProt O95747) | 102% |
| IKBKE (Homo sapiens, UniProt Q14164) | 101% |
| MAPK9 (Homo sapiens, UniProt P45984) | 111% |
| Tyrosine-protein kinase Lyn, isoform B (LYN, Homo sapiens, UniProt P07948) | 99.4% |
| PRKCA (Homo sapiens, UniProt P17252) | 115% |
| NEK2 (Homo sapiens, UniProt P51955) | 88.9% |

Single results of other studies
CRK2: Cyclin-dependent kinase 2 homolog (CRK2, Plasmodium falciparum, UniProt P61075)
UniProt P61075, sequence (whole entry, looked up): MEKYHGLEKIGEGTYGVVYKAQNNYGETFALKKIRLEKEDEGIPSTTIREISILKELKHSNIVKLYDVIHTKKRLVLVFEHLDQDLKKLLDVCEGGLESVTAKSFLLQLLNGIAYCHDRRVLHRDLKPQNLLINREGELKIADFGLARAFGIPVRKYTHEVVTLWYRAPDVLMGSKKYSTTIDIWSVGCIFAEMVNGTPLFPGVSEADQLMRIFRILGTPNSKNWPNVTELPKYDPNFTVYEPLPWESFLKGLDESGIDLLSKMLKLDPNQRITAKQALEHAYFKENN
| SMILES | target | effect on | technique | concentration | measurement | result |
| --- | --- | --- | --- | --- | --- | --- |
| CC(=O)N1CCC(c2ccc(C(=O)NC3=NCCN3)cc2C(F)(F)F)CC1 | CRK2 | cell-free assay | competition with immobilised ligand | 1 µM | remaining binding | 100% |
| O=C(Nc1cccnn1)N1CCC(=Cc2cccc(Oc3ccc(C(F)(F)F)cn3)c2)CC1 | HTR2C (Homo sapiens, UniProt P28335) | binding | radioligand binding | 10 µM | inhibition | 64.6% |
| COc1ccc2cc(OCC3(C(=O)O)CN(C(=O)c4ccc(F)cc4)C3)ccc2c1 | CRK2 | cell-free assay | competition with immobilised ligand | 1 µM | remaining binding | 97% |

For quick reference, copied from above (set 2):
| SMILES | GFP-positive cells |
| --- | --- |
| C[C@@H]1O[C@@H]1P(=O)(O)O | 97.7% |
| NCCCNCCSP(=O)(O)O | 116% |
| C[Se]CC[C@H](N)C(=O)O | 119% |
| CC(=O)c1c(C)c2cnc(Nc3ccc(N4CCNCC4)cn3)nc2n(C2CCCC2)c1=O | 125% |
| Nc1nc(Cl)nc2c1ncn2[C@H]1C[C@H](O)[C@@H](CO)O1 | 98.8% |
| C/C(O)=C(\C#N)C(=O)Nc1ccc(C(F)(F)F)cc1 | 33.3% |
| C[C@]12CCC(=O)C=C1[C@@H]1C[C@@H]1[C@H]1[C@@H]3[C@@H]4C[C@@H]4[C@@]4(CCC(=O)O4)[C@@]3(C)CC[C@@H]12 | 93.8% |
| CC(=O)NS(=O)(=O)c1ccc(N)cc1 | 129% |
